Experimental data pooled from the literature.
Each numbered part is a random draw from the data of one study; scales do not carry over between parts. Substitutions count along the parent as printed.

Set 1 — target: CCNE1, cyclin fold, Cln2 fusion (human); method: yeast growth competition, sequencing; matrix: yeast; notes: weak parent motif; baseline: not given; reading: higher = stronger binding
Starting sequence: PKN2 docking peptide (human); DSTVTKLDFDLEP
Change | normalised enrichment score
DSTVTKLDFDAEP [L11A] | 0.129
DSAVTKLDFDLEP [T3A] | 0.729
DSTVTKLDFALEP [D10A] | 0.108
DSTVTKLAFDLEP [D8A] | 0.18
DSTVTALDFDLEP [K6A] | 0.455
DSTVTKLDFDLEA [P13A] | 0.362

Set 2 — target: UBE2L6 UBC core domain (UniProt O14933); method: yeast two-hybrid; matrix: yeast; notes: mostly zero background; baseline: not given; reading: higher = stronger interaction
B1: RNF111 RING domain (UniProt Q6ZNA4); chain EGTEEDTEEKCTICLSILEEGEDVRRLPCMHLFHQVCVDQWLITNKKCPICRVDIEAQLPSE
B2: RC3H1 RING domain (UniProt Q5TC82); chain QAPQWTDFLSCPICTQTFDETIRKPISLGCGHTVCKMCLNKLHRKACPFDQTTINTDIELL
B3: NEURL1 RING domain (UniProt O76050); chain VTPGLGQWSDECTICYEHAVDTVIYTCGHMCLCYACGLRLKKALHACCPICRRPIKDIIKT
B4: TRIM4 RING domain (UniProt Q9C037); chain EAEDIQEELTCPICLDYFQDPVSIECGHNFCRGCLHRNWAPGGGPFPCPECRHPSAPAALRP
B5: SH3RF2 RING domain (UniProt Q8TEC5); chain DDLTLLDLLECPVCFEKLDVTAKVLPCQHTFCKPCLQRVFKAHKELRCPECRTPVFSNIEAL
B6: TRIM43 RING domain (UniProt Q96BQ3); chain FSHAFQKELTCVICLNYLVDPVTICCGHSFCRPCLCLSWEEAQSPANCPACREPSPKMDFKT
B7: MKRN1 RING domain (UniProt Q9UHC7); chain FAVQRSKDMVCGICMEVVYEKANPSERRFGILSNCNHTYCLKCIRKWRSAKQFESKIIKSCPECRITSNFVIPSE
Construct (chain): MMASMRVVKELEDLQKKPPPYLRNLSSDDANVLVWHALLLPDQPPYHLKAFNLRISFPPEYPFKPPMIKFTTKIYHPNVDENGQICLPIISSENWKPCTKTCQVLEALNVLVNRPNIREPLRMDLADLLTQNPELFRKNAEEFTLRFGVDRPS
Molecule | lacZ reporter activity
B1 (RNF111 RING domain) | 0
GAAPGPEAAECLVCSELALLVLFSPCQHRTVCEECARRMKKCIRCQVVVSKKLRPD (MIB2 RING domain (UniProt Q96AX9)) | 0
B2 (RC3H1 RING domain) | 0
B3 (NEURL1 RING domain) | 0
B4 (TRIM4 RING domain) | 0
DHGAVGQEMCCPICCSEYVKGEVATELPCHHYFHKPCVSIWLQKSGTCPVCRCMFPPPL (PJA1 RING domain (UniProt Q8NG27)) | 0
B5 (SH3RF2 RING domain) | 0
B6 (TRIM43 RING domain) | 0
B7 (MKRN1 RING domain) | 0
MPIRALCTICSDFFDHSRDVAAIHCGHTFHLQCLIQWFETAPSRTCPQCRIQVGKRTIIN (TRAIP RING domain (UniProt Q9BWF2)) | 0

Set 3 — method: RNA Bind-n-Seq; molecule type: RNA; matrix: in vitro; concentration: 365 nM; baseline: no-protein control; reading: higher = stronger binding
Target: RNA binding protein fox-1 homolog 2, RRM domain, GST-SBP tag (RBFOX2, Homo sapiens, UniProt O43251-10, residues 100-194)
Notes: natural RNA segment, single round, ends assumed
Shared flanks, not repeated: GGGAGUUCUACAGUCCGACGAUC … UGGAAUUCUCGGGUGCCAA
Residues (chain): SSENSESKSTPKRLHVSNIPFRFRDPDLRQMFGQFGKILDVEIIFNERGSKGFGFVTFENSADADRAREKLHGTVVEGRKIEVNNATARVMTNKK
Sequence | RBNS enrichment (R)
UUCGGGUGACCAGGUGCUUGUGACCUACAAGUCAGAGUCCUCUCUCACAGUCGGCCACUGGAUUUCCCUCACUGGCUCUCAGGAGUGUGACCAGAGUAGACUUGGGGCAU | 0.225
UGUGCAUUUUCACCUGAGGUUUCCCUGCAUCCCUGCAGUGCCAAAGCCCCACCUUCAGGGACCACCUGGAAUGUGUGAGGGGCUGACAGCACAGUAACGUGCAUACAUAU | 0.408
AGGCAUUACUCUUCCCUGCCUCACAUCAAGGUGCCAUUCAGGUAGUUGGCUCCCAGCUACUUAACGAUAAAAAUAUCACUUUCGUAUUUGUAUCAGAGAAACUUAAAAAA | 0.583
AAAAAAAUCAGUGUUUAAAUAAAGACCUAUGUACUUAAUCCUUUAACUCUGCGGAUAGCAUUUGGUAGGUAGUGAUUAACUGUGAAUAAUAAAUACACAAUGAAUUCUUC | 0.741
AGAAGACACUGUGCACCAGCUGUGCUAUGUUUGAAGCUGAGGUGGCCACAGACAGCACAAGAUGUUCACACUAAAGAGAGAGAAGGUGGCUUUUUAUAUGUUAUGUUUUA | 2.68
UUUAGAAGAAUGCAUUCAAGGAUUCUUUUCCUUUCCUUCAGUGUCAUUAAUGUUAAAAGAGCAGCCACUGUUUUGUUGAAACAAACAGCUUAACUUCAGAAAUAAGAACU | 0.241
UUUUGGGGAAGGGGAGGAUAGCGAGAAGAUGCUCUGGGGGUUUUGUUUUUGCUUUUCCUUCAGGGUUUUAUUUUUGACUGUUUUGUUUUCUUGUUGGCCAUUUCUGUAUU | 1.17
UAUAGAACGGAUGUUUAGGUGAAGAAAUUGGUUCUUGGUUAUGUUUACAGCACUUGGGAUUGUGUUUUCUUGUACAUUUUGUAUUUUAAAAAUCUUUUAUAGGAGUGCAG | 0.572
GCAGGCCUAGUGUAUACAAACUGGUUGUAUGUAUCAUGCCGUGGAGCUAGGGGGAGGAGUCAUUGUGGCACAAGUAUUUGUACAUACUCUGCUUCUCUCUGUCAGCGUCC | 0.233
UAUAAAGAUGUUCAUAUUUUAGGAAUAUUUGCAUAACUCAAGUGGAUAAAACAUUAAAAUGAAAACCAGUUUUUCAGGAUGCAUAGGUAAGGAAUGAUUGCUAUAUUAUA | 0.954
CCAAGAUGAUUGCCUUAUUGAAUAGGUCACUACUAAGGCCCUUAAGUGUUGAUACCUGCCAUGUGUGGAGACAGUGUAAAUUCUACAUGAGUGUGAAACAAGGCAAGUCU | 0.574
UUUGAGCCUGGGAAAUAAGCCCCCUCAACUACCAUUCCUUCUUUAAACACUCUUCAGAGAAAUCUGCAUUCUAUUUCUCAUGUAUAAAACUAGGAAUCCUCCAACCAGGC | 5.79

Set 4 — method: EMSA with sequencing; molecule type: double-stranded DNA, one strand shown; matrix: in vitro; concentration: 10 and 20 nM; baseline: negative control set to 0; reading: higher = stronger binding
Target: Hepatocyte nuclear factor 3-alpha (Foxa1, Mus musculus, UniProt P35582, residues 1-468, full length assumed)
Sequence of UniProt P35582 (whole entry, looked up): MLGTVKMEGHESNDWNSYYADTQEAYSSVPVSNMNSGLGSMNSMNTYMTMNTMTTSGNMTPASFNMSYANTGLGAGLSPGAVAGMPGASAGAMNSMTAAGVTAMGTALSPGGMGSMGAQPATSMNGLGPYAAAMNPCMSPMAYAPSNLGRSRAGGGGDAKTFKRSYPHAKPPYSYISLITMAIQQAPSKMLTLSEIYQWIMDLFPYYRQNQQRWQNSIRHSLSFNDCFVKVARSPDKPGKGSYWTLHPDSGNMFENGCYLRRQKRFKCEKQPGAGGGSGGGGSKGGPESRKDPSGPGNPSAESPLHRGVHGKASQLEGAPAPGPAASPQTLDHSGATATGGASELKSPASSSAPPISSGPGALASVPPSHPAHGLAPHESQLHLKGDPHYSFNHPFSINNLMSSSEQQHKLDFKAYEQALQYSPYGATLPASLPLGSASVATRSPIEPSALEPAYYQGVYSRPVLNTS
Notes: whole designed probe, mean of two concentrations, ends assumed
Shared flanks, not repeated: GTGAGCGGTGCCCATTGATGGGGAAC … TTTCACTGGGATCGTGGGGAC
Sequence | normalised bound fraction [ratio]
TAATTTGGCTTTCCTTGTAAAACTCTTTTTAATTTTTAATTTTAAATGCCATGTAATACACTTGTTCTCTCTTTGAACTGAGATTTATCAATGTAATCTAGAAGAACAATTCAATTCATTAAATTAAAGAGGATATTTGTTCCAGGCTGAAAAATTAAGTGGTTTACTACACATAAATATAAAATTTCCTTCA | -0.0307
ATTCATGTGAAAATTACGATAATAACACATATCTCACCCAGAAGAAAAAAAAATTGTGAAGAAACTTAGAAGTTCTAAAAATATAAGGTATAATGTAATCTTGAATAACAATAACATTTATAGCTTGATGTTTTTTCAGGCCTTGTAATTTTCAAAATATGTGTATATAGTTAGCTGATTAGAAGAAAATATG | 0.032
ATAATTTTTATTTGAAGATGCCATTTTTCAACATATTCAGATGATTGTGAGTACCATTGATTCTGTATCATATGAACAATGGCAATACCTTCCATGTTTACATAATATTAAAAACCATGTTAAGACTGAATATTTGGTGTAATGGTGCATCACATTATTCTAGCTTCCATACTAGTTGTTTTATTTGTTTGTT | 0.539
ATACTGGTATTACCCACCTCACTATTATGAAGTATAACATACAGCGTGCACAGCACAGTGTCTGGCCCATTGTAGTTGCTCAATAGCTTTTAGTGTTTGCTTTTATGAGTTTGAGTCATCTTTGTGGTGAGGATTACAGACCCTGACCCCTCTACTTGAGGTAGAACCAAGTCTATGGTTTCTCAGCCTGGGC | 0.27
AGTTTATTATTTGCTTAAAAACAAATTAATATAATTGCATTGCTTATAAAATGTAACCTTACTTGACCGCTAAAGATGACCTAGTTCTTTTTTCAGATTACTTTGTTTTGAATTTACTGATAATATGAACCTTGGAAAATCCATCAATACAAAGAGTTTCTGTTTCTATTGATTTGTCAGAGAGGTGTTCTGA | 0.248
ACTCTGTTCATATGGCACGTTTCCTGCATATCATTCAGCCATTCTTCTCTGACACGTTCTGAGACGGAGACTTACAGGAAATACAGGCCCTGTGTAATCTCTTGAAACACAGACAAGCAAATACCCACGAGTCTTTATCGCTCTTGATTCTTGGCACAGTTCCTTGCATGTGGTAGAGGCCTAACAGTTTTTC | -0.000604
GATTCCAGCCAGCAGAATAGGAATTTCAGAATACGATAAGGAGATGTTAAGGAAGGTCAGGCAGTAAAAAGAGGTTTGCTGACTCATGTGGTTTGTTGACTTAGCAAGTCAGGGAGAAGTCAATTGTTTGCTCTCCTGTTTTACAGTCTTTAGGTGTGGGCCAGCCCAGGGCCATTGATAGTCATTTTAGCCA | 0.458
TCACATCAAAGCCTCTGAGCTTAAATATTAGGCTATTTACCATGGCTGTGAGAGACGGGGAACAAAAAACAGTGTTTAGTTAAATCAACAGCTATGTTTACACTCTCTGTATAAACAGTGCAATGTCCTCAAAGAAATCACACAAGAAGGAACAGTAACTCCTGCCAACACACTGGTAAACTTGGCTCTGCCA | 0.388

Set 5 — method: aptamer microarray, sandwich; molecule type: DNA with 2'F-ANA; matrix: in vitro; concentration: 200 nM; together with: Cy3 exosite-II aptamer, 400 nM; reading: higher = stronger binding; sequence: GGTTGGTGTGGTTGG
Target: Prothrombin, mature alpha-thrombin (F2, Homo sapiens, UniProt P00734)
Notes: whole 15-mer aptamer, many near background
Modification | mean fluorescence intensity
2'F-ANA at 1 2 6 7 10 11 12 13 14 15 | 51.2 a.u.
2'F-ANA at 1 2 3 8 10 13 15 | 130 a.u.
2'F-ANA at 4 5 6 8 11 12 13 15 | 74.9 a.u.
2'F-ANA at 1 2 3 4 7 8 9 10 15 | 58.2 a.u.
2'F-ANA at 1 2 4 5 6 7 9 10 11 12 14 | 66.8 a.u.
2'F-ANA at 2 4 5 7 8 9 10 13 14 15 | 209 a.u.
2'F-ANA at 4 6 7 8 11 15 | 283 a.u.
2'F-ANA at 2 4 7 8 10 11 13 14 15 | 61.9 a.u.
2'F-ANA at 3 4 8 10 11 13 | 316 a.u.
2'F-ANA at 5 7 8 14 | 45.3 a.u.
2'F-ANA at 2 3 4 6 9 10 13 | 195 a.u.
2'F-ANA at 1 2 4 7 9 10 12 | 64.2 a.u.
2'F-ANA at 1 2 3 6 8 13 14 15 | 72.7 a.u.
2'F-ANA at 3 4 6 8 9 10 11 13 15 | 176 a.u.
